Published values collected from several papers.
Each numbered part is a random draw from the data of one study; scales do not carry over between parts.
UniProt P42338, sequence (whole entry, looked up): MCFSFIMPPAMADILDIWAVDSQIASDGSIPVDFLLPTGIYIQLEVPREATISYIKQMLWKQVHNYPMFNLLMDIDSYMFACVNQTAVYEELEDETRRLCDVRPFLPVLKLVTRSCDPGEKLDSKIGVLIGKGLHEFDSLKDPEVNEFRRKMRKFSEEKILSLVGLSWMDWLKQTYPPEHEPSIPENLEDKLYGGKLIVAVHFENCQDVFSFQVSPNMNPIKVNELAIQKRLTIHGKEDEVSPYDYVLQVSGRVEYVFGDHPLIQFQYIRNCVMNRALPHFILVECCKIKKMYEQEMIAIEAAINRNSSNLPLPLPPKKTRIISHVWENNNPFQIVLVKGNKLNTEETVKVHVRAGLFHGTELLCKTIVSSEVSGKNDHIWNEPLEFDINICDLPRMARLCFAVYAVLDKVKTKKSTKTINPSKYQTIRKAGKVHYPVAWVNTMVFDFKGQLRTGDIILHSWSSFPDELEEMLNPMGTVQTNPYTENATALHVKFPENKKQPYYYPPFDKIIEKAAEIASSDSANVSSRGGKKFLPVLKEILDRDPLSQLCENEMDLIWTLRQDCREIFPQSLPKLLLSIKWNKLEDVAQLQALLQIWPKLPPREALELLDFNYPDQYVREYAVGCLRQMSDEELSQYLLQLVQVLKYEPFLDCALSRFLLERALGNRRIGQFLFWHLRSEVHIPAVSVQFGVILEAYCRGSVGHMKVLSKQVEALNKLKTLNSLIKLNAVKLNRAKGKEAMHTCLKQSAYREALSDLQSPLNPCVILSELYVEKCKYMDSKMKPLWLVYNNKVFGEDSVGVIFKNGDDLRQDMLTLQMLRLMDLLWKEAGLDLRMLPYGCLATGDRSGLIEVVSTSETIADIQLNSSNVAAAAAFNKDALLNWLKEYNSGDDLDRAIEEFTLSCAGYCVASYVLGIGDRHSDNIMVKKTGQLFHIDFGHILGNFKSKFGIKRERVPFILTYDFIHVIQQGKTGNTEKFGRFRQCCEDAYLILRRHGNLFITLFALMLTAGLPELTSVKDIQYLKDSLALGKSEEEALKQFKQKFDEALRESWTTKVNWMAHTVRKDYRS
UniProt Q96BR1, sequence (whole entry, looked up): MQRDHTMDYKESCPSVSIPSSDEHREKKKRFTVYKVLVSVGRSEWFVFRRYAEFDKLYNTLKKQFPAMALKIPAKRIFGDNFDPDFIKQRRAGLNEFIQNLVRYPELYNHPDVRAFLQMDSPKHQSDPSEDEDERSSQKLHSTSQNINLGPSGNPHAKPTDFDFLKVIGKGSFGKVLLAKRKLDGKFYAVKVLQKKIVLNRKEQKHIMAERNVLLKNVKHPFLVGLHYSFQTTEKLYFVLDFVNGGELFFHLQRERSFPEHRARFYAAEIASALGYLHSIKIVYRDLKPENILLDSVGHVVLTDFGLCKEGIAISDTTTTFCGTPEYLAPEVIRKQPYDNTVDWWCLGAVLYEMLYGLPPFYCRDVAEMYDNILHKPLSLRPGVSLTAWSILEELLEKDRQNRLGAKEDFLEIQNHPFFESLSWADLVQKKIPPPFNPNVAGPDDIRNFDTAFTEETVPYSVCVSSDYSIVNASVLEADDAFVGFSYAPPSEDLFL
UniProt O75385, sequence (whole entry, looked up): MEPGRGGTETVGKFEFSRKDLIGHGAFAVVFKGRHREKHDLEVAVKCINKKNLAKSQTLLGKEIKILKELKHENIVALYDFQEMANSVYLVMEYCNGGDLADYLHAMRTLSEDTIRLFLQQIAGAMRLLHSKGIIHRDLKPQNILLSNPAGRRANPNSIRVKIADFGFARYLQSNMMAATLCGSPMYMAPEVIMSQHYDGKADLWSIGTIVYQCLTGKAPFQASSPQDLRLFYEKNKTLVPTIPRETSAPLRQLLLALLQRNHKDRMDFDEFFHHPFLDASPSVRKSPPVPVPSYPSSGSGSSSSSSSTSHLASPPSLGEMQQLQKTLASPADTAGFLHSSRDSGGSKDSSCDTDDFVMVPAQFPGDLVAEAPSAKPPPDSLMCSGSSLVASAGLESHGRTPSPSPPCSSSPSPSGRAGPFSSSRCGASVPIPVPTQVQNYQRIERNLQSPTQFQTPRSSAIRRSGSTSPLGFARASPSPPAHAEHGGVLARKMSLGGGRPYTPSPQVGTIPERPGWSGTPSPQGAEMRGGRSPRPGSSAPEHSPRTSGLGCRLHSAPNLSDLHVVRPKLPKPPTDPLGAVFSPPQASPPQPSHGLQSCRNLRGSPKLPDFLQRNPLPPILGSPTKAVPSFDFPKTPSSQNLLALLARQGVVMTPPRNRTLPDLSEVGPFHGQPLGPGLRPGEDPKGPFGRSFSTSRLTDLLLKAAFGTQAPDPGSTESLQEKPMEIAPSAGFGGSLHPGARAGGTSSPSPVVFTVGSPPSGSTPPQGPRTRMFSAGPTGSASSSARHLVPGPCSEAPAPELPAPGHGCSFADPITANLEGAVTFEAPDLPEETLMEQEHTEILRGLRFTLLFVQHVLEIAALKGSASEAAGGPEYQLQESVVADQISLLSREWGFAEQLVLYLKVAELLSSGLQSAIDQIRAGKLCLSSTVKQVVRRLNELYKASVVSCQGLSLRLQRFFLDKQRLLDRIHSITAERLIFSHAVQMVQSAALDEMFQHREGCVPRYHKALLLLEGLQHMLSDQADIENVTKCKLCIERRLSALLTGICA
UniProt Q15759, sequence (whole entry, looked up): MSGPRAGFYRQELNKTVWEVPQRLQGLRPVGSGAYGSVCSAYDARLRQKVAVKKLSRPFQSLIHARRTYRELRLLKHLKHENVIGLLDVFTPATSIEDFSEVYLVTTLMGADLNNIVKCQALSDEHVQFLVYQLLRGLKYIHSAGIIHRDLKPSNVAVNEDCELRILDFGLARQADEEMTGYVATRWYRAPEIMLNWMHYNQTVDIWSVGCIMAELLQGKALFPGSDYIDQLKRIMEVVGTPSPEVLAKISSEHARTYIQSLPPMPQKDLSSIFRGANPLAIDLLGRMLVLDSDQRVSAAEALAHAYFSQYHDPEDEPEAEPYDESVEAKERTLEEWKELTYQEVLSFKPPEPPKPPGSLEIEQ
UniProt Q07912, sequence (whole entry, looked up): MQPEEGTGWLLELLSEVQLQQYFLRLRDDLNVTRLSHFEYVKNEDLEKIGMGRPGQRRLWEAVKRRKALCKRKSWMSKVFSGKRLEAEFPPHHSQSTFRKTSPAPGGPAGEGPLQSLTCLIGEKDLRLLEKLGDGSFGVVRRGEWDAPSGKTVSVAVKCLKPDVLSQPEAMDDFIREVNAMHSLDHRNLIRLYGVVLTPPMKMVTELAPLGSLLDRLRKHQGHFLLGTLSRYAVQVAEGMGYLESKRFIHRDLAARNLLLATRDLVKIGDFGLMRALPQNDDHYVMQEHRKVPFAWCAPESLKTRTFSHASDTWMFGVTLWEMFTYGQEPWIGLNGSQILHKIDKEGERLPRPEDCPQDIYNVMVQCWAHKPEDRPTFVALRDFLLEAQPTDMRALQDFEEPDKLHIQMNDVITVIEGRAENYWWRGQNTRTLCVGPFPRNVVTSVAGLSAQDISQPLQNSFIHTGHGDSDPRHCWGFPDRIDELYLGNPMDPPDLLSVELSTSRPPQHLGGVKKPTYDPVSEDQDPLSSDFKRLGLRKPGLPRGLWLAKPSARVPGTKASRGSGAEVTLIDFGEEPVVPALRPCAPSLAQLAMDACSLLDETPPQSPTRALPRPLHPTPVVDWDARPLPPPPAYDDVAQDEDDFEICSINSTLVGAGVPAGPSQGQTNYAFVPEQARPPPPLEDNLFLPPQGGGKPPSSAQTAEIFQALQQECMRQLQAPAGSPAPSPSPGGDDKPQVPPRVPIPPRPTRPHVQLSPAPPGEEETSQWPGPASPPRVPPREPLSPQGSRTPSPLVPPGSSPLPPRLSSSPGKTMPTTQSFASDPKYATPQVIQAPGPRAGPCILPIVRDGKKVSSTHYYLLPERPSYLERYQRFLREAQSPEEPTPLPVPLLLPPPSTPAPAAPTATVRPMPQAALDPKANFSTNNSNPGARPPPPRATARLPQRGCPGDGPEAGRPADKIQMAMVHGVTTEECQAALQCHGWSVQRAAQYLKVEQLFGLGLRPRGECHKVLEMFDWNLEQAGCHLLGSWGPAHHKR
UniProt Q86UX6, sequence (whole entry, looked up): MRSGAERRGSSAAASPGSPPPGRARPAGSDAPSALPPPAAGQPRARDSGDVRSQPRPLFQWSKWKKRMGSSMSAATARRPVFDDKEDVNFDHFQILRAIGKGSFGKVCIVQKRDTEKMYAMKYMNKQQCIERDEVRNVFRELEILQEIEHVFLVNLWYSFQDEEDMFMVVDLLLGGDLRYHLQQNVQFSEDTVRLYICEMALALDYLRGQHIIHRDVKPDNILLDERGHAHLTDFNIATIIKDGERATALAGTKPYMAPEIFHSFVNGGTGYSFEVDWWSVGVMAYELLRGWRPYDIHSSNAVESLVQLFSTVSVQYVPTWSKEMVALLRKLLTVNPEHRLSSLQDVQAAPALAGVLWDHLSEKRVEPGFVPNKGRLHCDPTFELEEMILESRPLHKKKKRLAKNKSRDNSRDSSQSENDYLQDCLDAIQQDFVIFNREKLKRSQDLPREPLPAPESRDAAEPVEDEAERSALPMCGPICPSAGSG
UniProt Q15831, sequence (whole entry, looked up): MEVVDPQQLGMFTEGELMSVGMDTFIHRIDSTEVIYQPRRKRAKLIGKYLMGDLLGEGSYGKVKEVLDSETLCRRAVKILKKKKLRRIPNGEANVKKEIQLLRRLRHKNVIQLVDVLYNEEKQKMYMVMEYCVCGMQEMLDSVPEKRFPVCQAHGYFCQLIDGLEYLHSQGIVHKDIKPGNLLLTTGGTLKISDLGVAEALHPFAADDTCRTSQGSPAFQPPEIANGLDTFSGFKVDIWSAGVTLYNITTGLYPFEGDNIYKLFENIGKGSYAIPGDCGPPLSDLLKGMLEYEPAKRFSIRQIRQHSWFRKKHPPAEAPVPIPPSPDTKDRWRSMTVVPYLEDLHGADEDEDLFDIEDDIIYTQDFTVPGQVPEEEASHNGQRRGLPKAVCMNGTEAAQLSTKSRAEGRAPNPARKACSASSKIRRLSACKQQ

Set 1
Compound: C[C@H](c1ccnc(Nc2nc3ccc(-c4cc(N(C)C)ncn4)cc3[nH]2)c1)N1CCN(C(=O)CC(F)(F)F)CC1
Technique: competition with immobilised ligand
Concentration: 0.1 µM
target	assay	remaining binding [%]
Cyclin-dependent kinase 4, with cyclin D3 (CDK4, Homo sapiens, UniProt P11802)	cell-free assay	89
RIOK2 (Homo sapiens, UniProt Q9BVS4)	cell-free assay	100
GSK3A (Homo sapiens, UniProt P49840)	cell-free assay	100
PDGFRA (Homo sapiens, UniProt P16234)	cell-free assay	99
CAMK2G (Homo sapiens, UniProt Q13555)	cell-free assay	77
MAPK11 (Homo sapiens, UniProt Q15759)	cell-free assay	89
STK11 (Homo sapiens, UniProt Q15831)	cell-free assay	100
RET (Homo sapiens, UniProt P07949, M918T)	cell-free assay	86
PDPK1 (Homo sapiens, UniProt O15530)	cell-free assay	76
RIOK3 (Homo sapiens, UniProt O14730)	cell-free assay	97
PIK3CB (Homo sapiens, UniProt P42338)	cell-free assay	100
CDKL3 (Homo sapiens, UniProt Q8IVW4)	binding	86
FGFR3 (Homo sapiens, UniProt P22607)	cell-free assay	100
NEK10 (Homo sapiens, UniProt Q6ZWH5)	cell-free assay	100
EGFR (Homo sapiens, UniProt P00533, G719C)	cell-free assay	84
NEK7 (Homo sapiens, UniProt Q8TDX7)	cell-free assay	100
EGFR (Homo sapiens, UniProt P00533, T790M)	cell-free assay	100
CSF1R (Homo sapiens, UniProt P07333)	cell-free assay	100
EGFR (Homo sapiens, UniProt P00533, G719S)	cell-free assay	91
KIT (Homo sapiens, UniProt P10721, A829P)	cell-free assay	83
STK32C (Homo sapiens, UniProt Q86UX6)	cell-free assay	100
MAP3K12 (Homo sapiens, UniProt Q12852)	cell-free assay	100
ULK3 (Homo sapiens, UniProt Q6PHR2)	cell-free assay	90

Set 2
Species: human
Matrix: microsomes or S9
Concentration: 2 µM
Time: 0.5 h
SMILES	remaining compound
CC1(C(=O)NC2CCCC2)Cn2c(cc3ccsc32)C(=O)N1c1ccc2c(c1)OCCO2 (stereo not drawn)	32.9%
Cc1nc(CC(C)C)cc(C(=O)N2C[C@@H](N(C)C)[C@H](C(C)C)C2)n1	33.5%
COc1nc(OCC(=O)c2ccccc2)nc(OC)c1Br	6.53%
CS(=O)(=O)c1ccc(Nc2ccc3sc(C(=O)O)cc3c2)c(F)c1	95.6%
O=C1CC(c2cccs2)Cc2nc3[nH]nc(O)c3cc21 (stereo not drawn)	> 100%
COc1ccc(Cc2nc3c4c(ncn3n2)OC(C)=C(C(C)=O)C4c2ccccc2)cc1OC (stereo not drawn)	22.8%
O=C(CCCOc1ccccc1)Nc1ccccc1-c1ccccc1	< 1%
Cn1ncc2c(-n3cc(Br)cn3)ncnc21	72.1%
COc1cc(=O)[nH]cc1C(=O)N1CCN(c2cncc(F)c2)CC1	66.4%
CCCn1nc(C)c(-c2cncn2Cc2cccc(OC(C)C)c2)c1C	4.63%
CS(=O)(=O)C1(C(=O)NC2CCCS(=O)(=O)C2)CCCC1 (stereo not drawn)	50.1%
c1ccc2c(c1)CC[C@H](Cn1ccnc1-c1cc3n(n1)CCCNC3)O2	69.9%
CCn1c(CO)nnc1[C@H]1C[C@@H](NC(=O)CCn2c(C)cccc2=O)C1	> 100%
O=[N+]([O-])c1ccc(CNC2=NS(=O)(=O)c3cc(Cl)ccc32)cc1	> 99%
O=C(O)CCc1nc2cc(-c3ccsc3)ccc2[nH]1	88.2%
Cn1cc(Br)c(C(=O)NCCCN2CCCC2=O)n1	> 99%
CCC1(c2ccc(NC(=O)c3c(OC)cccc3OC)cc2)CCC(=O)N=C1O (stereo not drawn)	72.4%
NS(=O)(=O)C1(CNc2nccc3cccnc23)CCC1	89.2%
COc1ccc(OCCc2c(O)nc(C)c(Br)c2O)cc1Br	0.183%
CCOC(=O)c1c2ccc(N(CC)CC)cc2n2c(Cl)cccc12	52.7%
c1ccc(-c2ncc(CNc3cccc(-c4nnc[nH]4)c3)s2)nc1	83.8%
Cc1cc(C)nc(Nc2n[nH]c(COc3ccccc3)n2)n1	76.8%

Set 3
Structure (SMILES): O=C1Cc2c([nH]c3ccc(Br)cc23)-c2ccccc2N1
Observed: enzyme activity
Mode: inhibitor
Concentration: 0.5 µM
Baseline: control
target	remaining activity [%]
PRKD3 (Homo sapiens, UniProt O94806)	95.5
SGK3 (Homo sapiens, UniProt Q96BR1)	107
PDGFRB (Homo sapiens, UniProt P09619)	93.2
RIPK2 (Homo sapiens, UniProt O43353)	75.9
PLK1 (Homo sapiens, UniProt P53350)	94.9
VRK1 (Homo sapiens, UniProt Q99986)	87.3
TNK2 (Homo sapiens, UniProt Q07912)	38.8
RAF1 (Homo sapiens, UniProt P04049)	91.5
HCK (Homo sapiens, UniProt P08631)	85.5
PHKG2 (Homo sapiens, UniProt P15735)	98.9
MAP3K9 (Homo sapiens, UniProt P80192)	64.6
ULK1 (Homo sapiens, UniProt O75385)	93.8
NTRK2 (Homo sapiens, UniProt Q16620)	95
MAP4K5 (Homo sapiens, UniProt Q9Y4K4)	30.1
ACVR1 (Homo sapiens, UniProt Q04771)	162
TAOK1 (Homo sapiens, UniProt Q7L7X3)	99.4
INSRR (Homo sapiens, UniProt P14616)	95.8
FGFR2 (Homo sapiens, UniProt P21802)	100
DYRK2 (Homo sapiens, UniProt Q92630)	107

Set 4
Cell line: HaCaT
Concentration: 100 µM
Time: 18 h
SMILES	viability [%]
O=C(O)c1ccc(-n2nc(-c3ccccc3O)nc2-c2ccccc2O)cc1	73.3
CCC[C@@H]1C[C@@H](C(=O)N[C@@H]([C@H]2O[C@H](SC)[C@H](OP(=O)(O)O)[C@@H](O)[C@H]2O)[C@H](C)Cl)N(C)C1	97.7
CCCCCOC(=O)Nc1nc(=O)n([C@@H]2O[C@H](C)[C@@H](O)[C@H]2O)cc1F	99.1
COc1cc(C(=O)N2CCOCC2)cc(OC)c1OC	115
C=CC1=C(C(=O)O)N2C(=O)[C@@H](NC(=O)/C(=N\OCC(=O)O)c3csc(N)n3)[C@H]2SC1	111
CCOC(=O)C1=C[C@@H](OC(CC)CC)[C@H](NC(C)=O)[C@@H](N)C1	113
O=C(O)c1cc(=O)[nH]c(=O)[nH]1	112
CN(C)[C@@H]1C(O)=C(C(N)=O)C(=O)[C@@]2(O)C(O)=C3C(=O)c4c(O)ccc(Cl)c4[C@@](C)(O)[C@H]3C[C@@H]12	92.9
CCOC(=O)n1ccn(C)c1=S	108
CC1(C)O[C@@H]2C[C@H]3[C@@H]4C[C@H](F)C5=CC(=O)C=C[C@]5(C)[C@@]4(F)[C@@H](O)C[C@]3(C)[C@]2(C(=O)CO)O1	97.2
OC[C@H]1O[C@H](OC[C@H]2O[C@H](OC[C@H]3O[C@H](O[C@]4(CO)O[C@H](CO)[C@@H](O)[C@@H]4O)[C@H](O)[C@@H](O)[C@@H]3O)[C@H](O)[C@@H](O)[C@H]2O)[C@H](O)[C@@H](O)[C@H]1O	87
Clc1cccc(Cl)c1N=C1NCCN1	114
CC(C)COc1ccc(CNC(=O)N(Cc2ccc(F)cc2)C2CCN(C)CC2)cc1	16.3
O=C(/C=C/c1ccc(O)cc1)c1ccc(O)cc1O	30.9
Brc1c(NC2=NCCN2)ccc2nccnc12	118
C=C[C@H]1[C@H](O[C@@H]2O[C@H](CO)[C@@H](O)[C@H](O)[C@H]2O)OC=C2C(=O)OCC[C@]21O	114
CC1(C)O[C@@H]2C[C@H]3[C@@H]4CCC5=CC(=O)C=C[C@]5(C)[C@H]4[C@@H](O)C[C@]3(C)[C@]2(C(=O)CO)O1	96.6
